{"data": "Experimental data gathered from unrelated publications", "note": "Numbered parts are unrelated; each lists some results of a single study. Changes are numbered by the printed parent chain."}
{"data": "Block 1", "target": "CCNF, cyclin fold, Cln2 fusion (human)", "technique": "yeast growth competition, sequencing", "sample": "yeast", "setting": "strong parent motif", "reference": "not given", "reading": "higher = stronger binding", "starting sequence": "EXO1 docking peptide (human); KPECGRVQRAIFQ"}
{"Change": "K1A", "normalised enrichment score": 1.92}
{"Change": "I11A", "normalised enrichment score": 0.301}
{"Change": "Q8A", "normalised enrichment score": 2.39}
{"Change": "V7A", "normalised enrichment score": 1.29}
{"Change": "Q13A", "normalised enrichment score": 2.32}
{"Change": "G5A", "normalised enrichment score": 2.48}
{"data": "Block 2", "target": "Interferon regulatory factor 7, full length, phosphomimetic (IRF7, Homo sapiens, UniProt Q92985, residues 1-503, S101K/S471D/S472D/S475D/S476D/S477D/S483D/S484D/S487D)", "technique": "protein-binding microarray", "molecule type": "double-stranded DNA, one strand shown", "sample": "in vitro", "concentration": "250 nM", "setting": "60-bp whole probe", "with": "salmon DNA 0.4 mg/ml", "reference": "random background probes", "reading": "higher = stronger binding", "constant ends, left off below": "GCCTAGCAC … GTCTTGATTCGCTTGACGCTGCTG", "Residues (chain)": "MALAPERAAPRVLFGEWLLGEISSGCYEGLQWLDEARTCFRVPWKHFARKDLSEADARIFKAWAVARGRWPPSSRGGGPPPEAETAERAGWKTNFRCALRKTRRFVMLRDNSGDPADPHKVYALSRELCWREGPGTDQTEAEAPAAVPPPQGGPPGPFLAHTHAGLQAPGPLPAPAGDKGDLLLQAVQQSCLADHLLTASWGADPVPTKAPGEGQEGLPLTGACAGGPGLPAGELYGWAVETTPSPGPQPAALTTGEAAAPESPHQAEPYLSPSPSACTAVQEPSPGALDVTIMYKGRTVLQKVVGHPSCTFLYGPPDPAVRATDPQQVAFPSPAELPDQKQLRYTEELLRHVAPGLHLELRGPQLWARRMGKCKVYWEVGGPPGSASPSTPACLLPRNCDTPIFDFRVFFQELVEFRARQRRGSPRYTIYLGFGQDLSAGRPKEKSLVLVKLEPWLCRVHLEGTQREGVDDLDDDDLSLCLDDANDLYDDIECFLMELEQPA"}
{"Strand": "GTGTACATCTCTCTTAAATAGTGCTAG", "log fluorescence": "0.225 z-score"}
{"Strand": "TCAACTTCGGCCTCTAGGACTGTGCTA", "log fluorescence": "-0.153 z-score"}
{"Strand": "TCACATTTATATCTTTGACTGTGCTAG", "log fluorescence": "0.566 z-score"}
{"Strand": "GACGATATCGGGACAGGAGACGTGCTA", "log fluorescence": "-0.238 z-score"}
{"Strand": "TTAGATATCAGACAGGATTAGTGCTAG", "log fluorescence": "-0.245 z-score"}
{"Strand": "CTCATGTTACATTTATATCTGTGCTAG", "log fluorescence": "0.664 z-score"}
{"Strand": "TCCTCTTTCTCTGCTACCCTTGTGCTA", "log fluorescence": "1.66 z-score"}
{"Strand": "TTAGGTTTCCTTTTCCTTGAGTGCTAG", "log fluorescence": "6.72 z-score"}
{"Strand": "TCATTTATGCACTCTTTAACTGTGCTA", "log fluorescence": "0.939 z-score"}
{"Strand": "TCAAACTTGTATTTGTCACTGTGCTAG", "log fluorescence": "0.174 z-score"}
{"Strand": "GACGGTTTCGATACTGGGGACGTGCTA", "log fluorescence": "8.76 z-score"}
{"Strand": "TCACATTTGATAAATCTTACTGTGCTA", "log fluorescence": "0.531 z-score"}
{"Strand": "TCACCTATAGGTTTCTAACTGTGCTAG", "log fluorescence": "0.326 z-score"}
{"Strand": "TTCCTTCTGCCTGTCCATTCGTGCTAG", "log fluorescence": "0.607 z-score"}
{"data": "Block 3", "target": "Sal-like protein 4, full length isoform B (SALL4, Homo sapiens, UniProt Q9UJQ4-2, residues 1-616)", "technique": "universal PBM", "molecule type": "double-stranded DNA, one strand shown", "sample": "in vitro", "concentration": "not given", "setting": "8-mer, flanks averaged, mean of replicates", "reading": "higher = stronger binding", "Target sequence (chain)": "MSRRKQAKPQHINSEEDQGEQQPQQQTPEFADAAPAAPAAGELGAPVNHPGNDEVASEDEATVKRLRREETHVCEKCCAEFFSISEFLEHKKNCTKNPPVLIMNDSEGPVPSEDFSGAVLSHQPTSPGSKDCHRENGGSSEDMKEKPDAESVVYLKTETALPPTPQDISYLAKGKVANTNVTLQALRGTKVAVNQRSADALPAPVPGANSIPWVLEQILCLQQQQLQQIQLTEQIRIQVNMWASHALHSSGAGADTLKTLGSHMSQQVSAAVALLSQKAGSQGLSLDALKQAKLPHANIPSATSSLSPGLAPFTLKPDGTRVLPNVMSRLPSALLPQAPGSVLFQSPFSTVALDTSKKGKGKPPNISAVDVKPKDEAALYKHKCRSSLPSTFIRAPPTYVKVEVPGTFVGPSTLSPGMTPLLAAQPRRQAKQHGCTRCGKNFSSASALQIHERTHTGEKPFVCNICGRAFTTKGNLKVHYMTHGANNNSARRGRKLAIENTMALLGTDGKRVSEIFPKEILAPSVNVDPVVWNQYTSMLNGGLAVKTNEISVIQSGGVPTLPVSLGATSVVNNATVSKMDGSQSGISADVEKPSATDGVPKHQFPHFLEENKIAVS"}
{"Strand": "ACAGTAGC", "E-score": -0.077}
{"Strand": "GACCAAAC", "E-score": -0.14}
{"Strand": "CCTCATAG", "E-score": -0.0261}
{"Strand": "AACGCAAA", "E-score": 0.0904}
{"Strand": "CCTGCCAA", "E-score": -0.11}
{"Strand": "AAGGGGAA", "E-score": -0.18}
{"Strand": "AATTTAGG", "E-score": 0.216}
{"Strand": "ATTTCTCG", "E-score": 0.187}
{"Strand": "ACACAGGA", "E-score": 0.0275}
{"Strand": "CCTGAAAG", "E-score": 0.0391}
{"Strand": "CGTTGGCA", "E-score": -0.0592}
{"Strand": "GGCCACTA", "E-score": -0.163}
{"Strand": "GCATAAAC", "E-score": 0.216}
{"Strand": "ACGTGCTG", "E-score": -0.147}
{"data": "Single results of other studies"}
{"Molecule": "PhoQ, residues 284 288 289 292 302 303 TTCLQL", "target": "PhoP, residues 12 14 15 18 19 NHFIF (Escherichia coli, UniProt P23836)", "test": "Sort-seq, item: YFP reporter", "test system": "E. coli", "setting": "PhoQ-PhoP variant library, with: 10 µM Mg2+", "how to read": "reference: high Mg2+ state, higher = stronger signaling", "quantity": "fold induction", "value": 2}
{"note": "Excerpt of the above (block 3):"}
{"Strand": "GCATAAAC", "E-score": 0.216}
{"Strand": "CCTGCCAA", "E-score": -0.11}
